Experimental data pooled from the literature.
Compare with care: the assays were run in different laboratories. Several values in a cell are separate wells, animals, samples, runs or records.
Chain of UniProt Q9HC98 (whole entry, looked up): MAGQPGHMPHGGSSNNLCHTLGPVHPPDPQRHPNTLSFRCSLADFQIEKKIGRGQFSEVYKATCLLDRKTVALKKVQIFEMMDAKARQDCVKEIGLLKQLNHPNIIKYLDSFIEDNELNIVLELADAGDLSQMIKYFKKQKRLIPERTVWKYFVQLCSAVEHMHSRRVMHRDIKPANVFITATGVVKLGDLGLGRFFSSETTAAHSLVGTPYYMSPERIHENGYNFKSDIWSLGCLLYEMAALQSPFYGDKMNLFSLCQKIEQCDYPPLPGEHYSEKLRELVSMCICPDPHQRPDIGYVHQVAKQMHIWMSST
Chain of UniProt P33261 (whole entry, looked up): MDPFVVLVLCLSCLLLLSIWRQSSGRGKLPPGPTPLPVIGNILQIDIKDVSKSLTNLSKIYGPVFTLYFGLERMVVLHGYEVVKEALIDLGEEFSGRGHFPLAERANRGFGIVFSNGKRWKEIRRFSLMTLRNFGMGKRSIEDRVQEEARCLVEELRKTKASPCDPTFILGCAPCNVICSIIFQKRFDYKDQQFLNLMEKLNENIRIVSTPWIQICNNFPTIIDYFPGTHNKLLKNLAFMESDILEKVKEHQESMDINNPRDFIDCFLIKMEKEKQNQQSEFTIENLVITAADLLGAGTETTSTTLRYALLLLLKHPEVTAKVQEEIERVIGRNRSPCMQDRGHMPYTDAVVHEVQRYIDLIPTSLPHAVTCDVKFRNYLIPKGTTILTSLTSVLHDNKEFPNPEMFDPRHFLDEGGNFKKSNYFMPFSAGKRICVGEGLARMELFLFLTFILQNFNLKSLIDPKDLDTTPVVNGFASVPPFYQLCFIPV

SMILES	target or system	assay	system	setting	scale	endpoint	result
CCN(CC)CC#CCNc1ccnc2cc(Cl)ccc12	Salmonella typhimurium	mini-Ames test	TA100	62.5 µg/well, without S9		revertants per well	23
Nc1nc(-c2ccc(F)cc2F)nc2[nH]nc(Nc3ccc(F)cc3)c12	HeLa Ohio			72 h		CC50	> 140 µM
CN(Cc1ccccc1)C(=O)CN1CCN(CC(=O)[O-])CCN(Cc2cccc(C(=O)[O-])n2)CC1.[177Lu+3]			mouse, brain	intravenous, 1 h		tracer uptake	0.08 %ID/g
Cc1nn(-c2cccc(N)c2)c(=O)c2cnc(Nc3ccc(N4CCNCC4)cc3)nc12	NEK6 (Homo sapiens, UniProt Q9HC98)	enzyme activity, inhibitor				IC50	3.38 µM
Cn1nc(Nc2ccc(F)cc2)c2c(N)nc(-c3ccccc3)nc21	HeLa Ohio			72 h		CC50	> 150 µM
O=C([O-])CN1CCN(CC(=O)[O-])CCN(Cc2cccc(C(=O)[O-])n2)CC1.[44Sc+3]			mouse, blood	intravenous, 1 h		tracer uptake	0.57 %ID/g
Cc1ncsc1-c1ccc(C(C)NC(=O)C2CC(O)CN2C(=O)C(NC(=O)CCCCCCCCCCN2CCCC(Nc3ncc(Cl)c(Nc4ccccc4S(=O)(=O)C(C)C)n3)C2)C(C)(C)C)cc1 (stereo not drawn)	22Rv1	RNA-seq, refers to: ZNF697 mRNA		concentration not given	relative to: DMSO	log2 fold change	-1.25
O=C1C2CC3CC1CC(C(=O)N1CCN(c4ccc([N+](=O)[O-])c5ncccc45)CC1)(C3)C2	Salmonella typhimurium	Ames test	TA98	0.02 µg/well, with S9		mean revertant colonies	8 colonies/well
COC1CN([C@H]2CC[C@H]([C@@]3(C)Oc4c(Cl)cc(C(=O)NCc5c(SC)cc(C)[nH]c5=O)c(C)c4O3)CC2)C1		RNA-seq, refers to: ACP5 mouse homolog	mouse, HT-1376 xenograft, whole blood	dose not given	relative to: vehicle	log2 fold change	0.431
N#Cc1ccc(Nc2n[nH]c3nc(-c4ccccc4)nc(N)c23)cc1	HeLa Ohio			72 h		CC50	> 153 µM
Nc1ncc(-c2cc(-c3cnn(CC(F)(F)F)c3)ncc2F)nc1C(=O)NC1CNCC(F)C1 (stereo not drawn)	VPS34	KINOMEscan		1 µM	relative to: DMSO control	remaining binding	80%
CNC(=O)C1CCCN(C(=O)C2CC3CCC2N3C(=O)[C@@H]2C[C@@H](O)CN2C(=O)NCc2cccc(Cl)c2F)C1 (mixture of isomers)	CYP2C19 (Homo sapiens, UniProt P33261)	enzyme activity, inhibitor, time-dependent inhibition		0.206 µM, preincubated with NADPH	relative to: negative control	remaining activity	116%
CC(C)OCCOCc1ccc(OCC(O)CN(N=O)C(C)C)cc1 (stereo not drawn)	Escherichia coli	Ames test	WP2 uvrA	158 µg/plate, without metabolic activation	relative to: solvent control	revertant fold increase	1.1 fold
C=CC(=O)Nc1cccc(Cn2ncc3cnc(Nc4cnn(CCOC)c4)nc32)c1	TNNI3K human	binding, KINOMEscan		100 nM	lower = stronger binding	percent of control	97%
OC(Cc1cc(-c2ccc(C(O)C(F)(F)F)s2)sc1-c1ccc(-c2sc(-c3ccc(C(O)C(F)(F)F)s3)cc2CC(O)C(F)(F)F)s1)C(F)(F)F (stereo not drawn)	primary human fetal neurons	LC-MS/MS		4 µM, 15 min, replicate 1		amount in cell extract	0.47 nmol and 0.63 nmol and 0.36 nmol

For quick reference, copied from above:
SMILES	target or system	assay	system	setting	scale	endpoint	result
Nc1ncc(-c2cc(-c3cnn(CC(F)(F)F)c3)ncc2F)nc1C(=O)NC1CNCC(F)C1 (stereo not drawn)	VPS34	KINOMEscan		1 µM	relative to: DMSO control	remaining binding	80%
